Measurements of several laboratories.
Numbered parts are unrelated; each lists some results of a single study.

Sample 1
Target: Histone acetyltransferase KAT6A, both winged helices, GST fusion (KAT6A, Homo sapiens, UniProt Q92794, residues 1-181)
Technique: protein binding microarray
Molecule type: double-stranded DNA, one strand shown
Matrix: in vitro
Concentration: not given
Setting: 8-mer, flanks averaged, mean of 2 arrays, mostly near background
Reference: not given
Reading: higher = stronger binding
Endpoint: E-score
Target sequence (chain): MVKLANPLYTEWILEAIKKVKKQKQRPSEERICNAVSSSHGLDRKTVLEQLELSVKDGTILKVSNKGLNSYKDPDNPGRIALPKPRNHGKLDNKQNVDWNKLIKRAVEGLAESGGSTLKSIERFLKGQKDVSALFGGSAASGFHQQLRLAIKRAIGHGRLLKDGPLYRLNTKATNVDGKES
CTTTAAGC: -0.0488
CTGCTATC: -0.108
CGCCAGTA: -0.00368
GCCTCCGC: 0.207
CCTTTTTA: -0.195
TATAGACA: -0.186
GTTATTTA: 0.0558
CTCAGGGC: -0.0675
GAAAGAAC: -0.0162
GTGTCGGA: 0.0735
AGGTGTCG: 0.0411
GCCGAACC: 0.117
AACCATCC: -0.0175
AGCGCCCC: 0.0162
GTCGGTAA: 0.168
ATATCTGG: -0.236
GGTGTGAA: -0.0279
AGCCCAAA: -0.136
GACAGCCA: -0.127
TGGATCCA: -0.014
ACGTATTG: 0.119
TACTATAA: -0.074
AGGGAAAT: -0.162
AAGTCATT: -0.0871
AGTAACAT: -0.0103

Sample 2
Target: RING finger protein unkempt homolog, zinc fingers 1-6, GST-SBP tag (UNK, Homo sapiens, UniProt Q9C0B0, residues 30-357)
Technique: RNA Bind-n-Seq
Molecule type: RNA
Matrix: in vitro
Concentration: not given
Setting: RNA with constant flanks, ends assumed
Reference: input RNA pool
Reading: higher = stronger binding
Endpoint: bound/input enrichment
Construct (chain): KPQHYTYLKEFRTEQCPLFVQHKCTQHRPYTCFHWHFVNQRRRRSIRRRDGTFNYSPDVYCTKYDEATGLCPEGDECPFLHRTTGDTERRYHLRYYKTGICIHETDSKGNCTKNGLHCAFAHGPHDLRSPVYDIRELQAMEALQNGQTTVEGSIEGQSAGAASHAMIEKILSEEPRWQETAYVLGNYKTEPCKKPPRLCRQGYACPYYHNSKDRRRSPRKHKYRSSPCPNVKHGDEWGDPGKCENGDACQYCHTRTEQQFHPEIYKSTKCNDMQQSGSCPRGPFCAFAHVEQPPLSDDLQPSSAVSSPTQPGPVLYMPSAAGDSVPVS
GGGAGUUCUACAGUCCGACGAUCCAUGACAGCAACACCGAUAUGUUUCAGAUUGGCCGGUCGACUGAAAGCCCCAUUGAUUUUGCCGUAACUGACACGGUUCCUGGAAGUCAAAGUAAUUCUGAUACACAGUCAGUACAAAGCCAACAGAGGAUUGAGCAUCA: 0.0701 ratio
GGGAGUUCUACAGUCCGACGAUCAUCGUACAUCGAGACCUCAAGGCUGAAAAUCUAUUGUUAGAUGCCGAUAUGAACAUUAAAACCGCAGAUUUCGGUUUUAGCAAUGAAUUUACUGUUGGCGGUAAACUCGACACGUUUUGUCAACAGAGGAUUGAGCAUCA: 0.109 ratio
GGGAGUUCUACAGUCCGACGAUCAUGGAUAUUGAAUUUGACUUUAAAGGCGAUCCACUAGGAGGAGUAAUAAGUAACUAUCUUUCCGAGAAAUCUCGGGUUGUUAAACAGCCAAGAGGUGAAAGAAACUUCCAUGUGUUCUAUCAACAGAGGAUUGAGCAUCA: 0.116 ratio
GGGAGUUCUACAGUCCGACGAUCCGGUGUGUUGUCUGUUGUUAAUUCCAUUCCCUCCGUGUGUUUCCUUAAAAGCUUCUGUCUAUCCGUGGCUUCCUGUGCUCUGGGCACUUAACUCCUAAUCUUUCAAACACCGGGAUGCAACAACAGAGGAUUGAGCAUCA: 0.591 ratio
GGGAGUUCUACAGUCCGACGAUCCUGAGGAUACCACUGAAGAGACCUUAAAAGAAUCAUUUGAGGGCUCUGUUCGUGCAAGAACCGUCACUGAUCGGGAAACUGGUUCUUCCAAAGGGUUUGGUUUUGUAGACUUUAAUAGUGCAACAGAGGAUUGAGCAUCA: 0.662 ratio
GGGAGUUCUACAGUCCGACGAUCCAGCUAGAAGAGCUGGCUUUUAGGGUCAUGCGUCUUCAGGAUGAGCUGGUCACCUUGCGUCCCGAGUGUACAAACCUGUACCGGAAGGGUCAUUUCACUUCACUUGAAUUGGUUCCACCCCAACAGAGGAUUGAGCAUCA: 0.0904 ratio
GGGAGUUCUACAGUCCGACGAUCCGCACCACCAGAGGAAAGCGGAAGAGAGUUGAUGUGGAGGAGUCGGAGGCGAGCAGCAGUGUCCGCAUUUCCCACUCUGCCUCAGCCACGGGGAACGUGUGCAUUGAAGAGAUAGAUGUUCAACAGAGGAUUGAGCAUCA: 0.281 ratio
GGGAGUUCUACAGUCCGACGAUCGCUGCCAUGGCUGCAAGGCCCCAUUCCAUUGAUGGCAGGGUAGUUGAGCCAAAACGUGCUGCCGCAAGAGAGGAGUCUGGAAAACCAGGAGCCCAUGUGACUGUGAAGAAGCUGUUUGUUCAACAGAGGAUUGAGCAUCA: 0.11 ratio
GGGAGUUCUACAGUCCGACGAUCUUCCUUCUGCAUAAGGUUUUUGUAGUGUGAUGUCUUAAUCAUAGUCUACCAUCAAAUACUUCCGGAGUAUCCUUAAUGUUUAGAUAGAAUAUUAGCAGCAUGCAAUAAUUACAUCCUAAGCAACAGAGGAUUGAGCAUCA: 6.5 ratio
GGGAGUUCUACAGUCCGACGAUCUGGAUGUACACGUUCUCACGAGCUGCGAUUCUCCUUAGCAUUGUAUACUUCUAUUCUUCUUUCCGUCGGUUUAUCAUGGUAAUGGGAGCCAUGCUACUGGUUUAUUUACACCAAGCUGGACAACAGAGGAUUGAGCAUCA: 1.24 ratio
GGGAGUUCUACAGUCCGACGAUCGAGAAGAUUAUCUGUAACUUAAAACCAGCUUUAAAACUUCGUCUUCGAUUCAUCACACACAUCCGCAAGAUGGAGCCAGCUGCAGUGCCUCCACAAGCCAUGAACAGUGGGUCUCCAGCACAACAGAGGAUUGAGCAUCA: 0.205 ratio

Sample 3
Target: RNA binding protein fox-1 homolog 2, RRM domain, GST-SBP tag (RBFOX2, Homo sapiens, UniProt O43251-10, residues 100-194)
Technique: RNA Bind-n-Seq
Molecule type: RNA
Matrix: in vitro
Concentration: 365 nM
Setting: natural RNA segment, single round, ends assumed
Reference: no-protein control
Reading: higher = stronger binding
Endpoint: RBNS enrichment (R)
Residues (chain): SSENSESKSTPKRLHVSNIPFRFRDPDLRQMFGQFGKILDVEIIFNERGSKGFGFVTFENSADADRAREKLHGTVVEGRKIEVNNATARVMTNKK
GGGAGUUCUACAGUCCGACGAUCCUGUCUGUCAGUCAGGACCUUCUGGUAUAGGUGAUGUAAAAUAACCGUACAAUAUUAAUGCAUGCGAUUCCAUAAUGCUUAGUGAACUGUAUGAAUAUUACUCAAAGUUAUGGAAUUCUCGGGUGCCAA: 4.24
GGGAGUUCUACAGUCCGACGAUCUUGGAGGUUAGAUAAUGAAACCCGAGACUGUCUUCAGAAUAUAUACAAUCUGAAUAGUGUGCUGUCAGGAGUGGUUUGUCGGAGCAGCGCUUGCCACAAUGAUUCCGUGUUGGAAUUCUCGGGUGCCAA: 1.15
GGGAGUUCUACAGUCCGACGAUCAUUUGCUCAAUAAAAGUGGCCUUCCCUUGCCCUCCACACUAGGUCAUGUACAGUCUACCGCACCCUAGUGACAGUGUGGGUGUAUUUCUCUCAAACUCCCAUGGGAUCUAUGGAAUUCUCGGGUGCCAA: 0.47
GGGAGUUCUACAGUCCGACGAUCGCUAGGGGCUUUGUUCCUGCUUUUUGUUUUGUUUGGUUUUACUAUCAGAUGGAUGGAUUUGUGUUUGUCUCAGAGCAGCAUAUACAUGCAGUCAGUAAGCAUGUUUGAAAUGGAAUUCUCGGGUGCCAA: 0.83
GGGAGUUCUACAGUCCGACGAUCCAGUUACUUAUGCUGAAGAUCCCUGUGCUAGGUUAGCCUUUAGAAGUUAGAGUUGUGGAAAGCAGUAUUGUUUUCUUCUCUAGUGAUUGUUACCCUACACAUUUCAUGGAUGGAAUUCUCGGGUGCCAA: 0.271
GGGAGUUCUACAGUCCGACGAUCUAAGCACUGGUAGUCUGGAGUACCUGGUACUGAGUAACUCUAUAAUUGUGUUUUGUGUUCACCAUAUACAGAUCAUUUCUCAUCUGUAGUGUGCCCCAAAUGCAGCUUCAUGGAAUUCUCGGGUGCCAA: 0.414
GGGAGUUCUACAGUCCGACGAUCUUUAAAAUGCCUAACUUCUUAGGUACACAAACCCAUGGCUUUGUGUACUAGAACCAGAGCAAUCCACUGAUUCAUAUUGGAUCCCAAGUAUACCUCCUGCUGGUAUCAGGUGGAAUUCUCGGGUGCCAA: 0.225
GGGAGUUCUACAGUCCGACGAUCGGUGGCCCCUGUGGGGUGUCCUGUCACAGCCAUGUCUAUGGAAUCGCAGAGGCGGUGGGAAGGCUGUCAGAGCCUGUGUUCUGAUUUUUCAGAAAACAGGUCUCUCCUUUUGGAAUUCUCGGGUGCCAA: 0.195
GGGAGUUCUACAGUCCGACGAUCCCUAUAACAAAAAUAAUCUAGUUUUCAUUUCCUUACUAGCUAGAUGCGAAUUUGUCUUUUUGAAUGACCCUGUCAAUAAGCCAGAAAGGGCAACCCAGAAAAAGUGCUCCUGGAAUUCUCGGGUGCCAA: 0.885
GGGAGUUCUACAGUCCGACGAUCGAAGUCCAACUCAAGUCGGAGAGAGAGUGGAGCCUCUGCACUUGGGGAGUAGGUCAGUGUCAACUAACAAGCCCUGCCAGGGGCCACUGCCGCUCCUCUGGUCACAGUCCUGGAAUUCUCGGGUGCCAA: 0.231
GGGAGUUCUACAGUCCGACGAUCUGCUAGAGUUGUGGUGGCAGGGGCCCUGGCCCCGUCUCAGGAUUGCGCUCGCUUUCAUGGGACCAGACGUGAUGCUGGAAGGUGGGCGUCGUCACGGUUAAAGAGAAAUGUGGAAUUCUCGGGUGCCAA: 0.487
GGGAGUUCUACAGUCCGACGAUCGUACUGGGGAGGAGGAGAGGUGGGUGGCAGUAGAAGUUUGUGGGGAGAAGGUAACCUUUGCCUACAUAUGGCUGUCCUACAGGGUCUCCCUUGCCUGCAGUGGGAGAGUUUGGAAUUCUCGGGUGCCAA: 0.702

Sample 4
Target: Interferon regulatory factor 3, full length, phosphomimetic (IRF3, Homo sapiens, UniProt Q14653, residues 1-427, S386D/S396D/S398D/S402D/T404D/S405D)
Technique: protein-binding microarray
Molecule type: double-stranded DNA, one strand shown
Matrix: in vitro
Concentration: 2540 nM top
Setting: 60-bp whole probe
Added: salmon DNA 0.4 mg/ml
Reference: random background probes
Reading: higher = stronger binding
Endpoint: fitted relative affinity
Constant ends, left off below: GCCTAGCAC … GTCTTGATTCGCTTGACGCTGCTG
Target sequence (chain): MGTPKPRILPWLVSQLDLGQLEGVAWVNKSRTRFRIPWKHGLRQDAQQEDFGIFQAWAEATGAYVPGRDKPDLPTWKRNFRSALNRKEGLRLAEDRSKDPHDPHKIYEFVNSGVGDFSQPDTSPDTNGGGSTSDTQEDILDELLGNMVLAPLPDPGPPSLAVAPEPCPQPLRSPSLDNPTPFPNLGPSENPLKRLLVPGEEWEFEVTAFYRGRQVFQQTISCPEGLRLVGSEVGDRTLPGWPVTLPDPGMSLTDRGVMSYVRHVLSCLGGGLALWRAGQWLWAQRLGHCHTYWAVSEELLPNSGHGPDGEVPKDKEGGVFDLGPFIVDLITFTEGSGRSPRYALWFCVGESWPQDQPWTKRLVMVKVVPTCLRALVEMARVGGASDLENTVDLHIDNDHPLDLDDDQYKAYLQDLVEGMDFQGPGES
CTTTACATGAGTTTAGAGCCGTGCTAG: 0.488 z-score
TTGGATCTCAGACTGGATTAGTGCTAG: -0.31 z-score
GACGGTATCCTATTCCTGACGTGCTAG: 4.64 z-score
TTAGCTATCGGGACTGGGTTAGTGCTA: -0.3 z-score
GACGAAATCAGACTGGAGACGTGCTAG: 0.0887 z-score
GATGGTCTCGGTCTCGGGACGTGCTAG: 0.736 z-score
TTAGGTCTCCGTTTCGGTTAGTGCTAG: 4.88 z-score
TTCTAAACCATTTTGGTTTTGTGCTAG: 1.69 z-score
TGAGGTTTCCTTCTCCTTTAGTGCTAG: 10.1 z-score
TTTTTTTTTTTTTTTTGGAAGTGCTAG: 1.55 z-score
TTCCTTTCTCTTCCGTTAGCGTGCTAG: 5.16 z-score
GACGGTATCCTTCTCCTGAGGTGCTAG: 6.69 z-score
TTAGGACTGGGGTATCGATTAGTGCTA: -0.568 z-score
TTAGGTCTCCATTTCCTTTAGTGCTAG: 3.57 z-score
TCAAGGATGGTTTTCAGACTGTGCTAG: 0.357 z-score
GACGAACTGGGGACGGGAGACGTGCTA: -0.216 z-score
TACTTTCTATGTCTGTTTTTGTGCTAG: 2.36 z-score
TCACCACTCTTTCCTCACACTGTGCTA: 1.2 z-score
TTAGGACTGGGCCTGGGTTAGTGCTAG: -1.16 z-score
GACGAGTTCAGTATCGAGACGTGCTAG: 0.715 z-score
CGGAATTTCCCTCTGCTCCTGTGCTAG: 2.13 z-score
GACGATCTCAGTTTCGAGTCGTGCTAG: 3.01 z-score
GACGGTTTCGACTTTCGAGACGTGCTA: 3.99 z-score
AGGCCCTTTGCTTTCCTGATGTGCTAG: 0.617 z-score
TTAGATATCGGGTTTAGATTAGTGCTA: 0.399 z-score
